Published values of several laboratories.
Each line is one published result; not all experiments were run side by side. Values joined by “and” are separate records of one study, mostly repeats; a detail may differ. Numbers after ± are the reported error.
Histone acetyltransferase RTT109 with Vps75: Histone acetyltransferase RTT109, with Vps75 (Saccharomyces cerevisiae, UniProt Q07794)
Chain of UniProt Q07794 (whole entry, looked up): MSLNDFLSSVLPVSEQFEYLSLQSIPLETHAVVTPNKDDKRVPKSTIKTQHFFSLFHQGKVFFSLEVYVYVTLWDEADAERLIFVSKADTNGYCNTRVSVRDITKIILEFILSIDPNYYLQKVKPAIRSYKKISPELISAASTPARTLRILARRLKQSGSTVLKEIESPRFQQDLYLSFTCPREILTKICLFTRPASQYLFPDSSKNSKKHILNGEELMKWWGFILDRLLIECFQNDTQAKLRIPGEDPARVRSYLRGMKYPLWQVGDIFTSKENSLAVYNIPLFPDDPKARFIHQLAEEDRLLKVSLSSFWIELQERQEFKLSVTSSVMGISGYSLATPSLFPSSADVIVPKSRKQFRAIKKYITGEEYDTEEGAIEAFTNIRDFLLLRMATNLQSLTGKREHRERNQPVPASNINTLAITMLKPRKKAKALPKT
UCHL1: Ubiquitin carboxyl-terminal hydrolase isozyme L1 (UCHL1, Homo sapiens, UniProt P09936)
Chain of UniProt P09936 (whole entry, looked up): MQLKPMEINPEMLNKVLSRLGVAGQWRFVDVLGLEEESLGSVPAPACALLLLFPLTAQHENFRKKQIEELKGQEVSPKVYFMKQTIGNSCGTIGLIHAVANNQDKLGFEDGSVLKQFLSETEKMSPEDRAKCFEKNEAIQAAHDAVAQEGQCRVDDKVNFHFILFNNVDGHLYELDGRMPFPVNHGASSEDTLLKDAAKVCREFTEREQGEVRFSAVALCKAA

SMILES	target or system	test	system	conditions	scale	measurement	result
C=CC(=O)c1cccnc1Nc1cc(F)ccc1OC	MCF7	firefly luciferase reporter		25 µM, 6 h	relative to: vehicle	TEAD reporter activity	87.3 ± 6.5%
O=S1(=O)C=C(N2CCCCC2)c2ccccc21	Histone acetyltransferase RTT109 with Vps75	enzyme activity, inhibitor, HTS, CPM-based, dose response				IC50	> 125000 nM
Cc1nc(NC(=O)N2CCC[C@H]2C(N)=O)sc1-c1ccnc(C(C)(C)C(F)(F)F)c1	MCF7	cell growth, CellTiter-Glo		120 h		Hill coefficient GR curve	1.04
CC(=O)c1nn(-c2ccc(C)cc2)/c(=N/N=C(\C)c2ccc(NC(=O)c3ccccc3)cc2)s1	MCF7	MTT		2.5 µM		cytotoxicity	93.5%
C=CC(=O)c1cccnc1Nc1cc(NC(=O)c2ccccc2)ccc1OC	MCF7	firefly luciferase reporter		100 µM, 6 h	relative to: vehicle	TEAD reporter activity	23.9 ± 6.3%
CN(C)C(CNC(=O)CCl)c1ccccc1.Cl (stereo not shown)	UCHL1	covalent, intact protein LC-MS		12.5 µM		labelling	10.7%
C/C(=N\NC(=O)c1ccc(Cl)cc1)c1ccccn1	Trypanosoma cruzi	reporter translation, Renilla luciferase mRNA translation	cell-free extract	40 µM	relative to: DMSO	inhibition	-7.6%
CC(=O)Nc1ccc(/C(C)=N/N=c2\sc(C(C)=O)nn2-c2ccc(C)cc2)cc1	MCF7	MTT		1.25 µM		cytotoxicity	50.5%
CC(=O)c1nn(-c2ccc(Cl)cc2)/c(=N/N=C(\C)c2ccc(NC(=O)c3ccc(Cl)cc3)cc2)s1	MCF7			0.625 µM		viability	99.9%
C=CC(=O)c1cccnc1Nc1cc(NC(=O)CCCCCC)ccc1OC	MCF7	firefly luciferase reporter		25 µM, 6 h	relative to: vehicle	TEAD reporter activity	51.1 ± 1.7%
Cc1cc(-c2ccccc2)n(-c2nc(-c3ccc(Cl)cc3)c3c(NC(=O)c4ccccc4)nnc-3[nH]2)n1	MCF7	SRB		10 µM, NCI60 single-dose screen	relative to: untreated	cell growth	58.3%
CCCN1CCN(c2ccc3[nH]c(-c4ccc5[nH]c(-c6cc(OC)c(OC)c(OC)c6)nc5c4)nc3c2)CC1	MCF7	SRB		10 µM, 48 h		growth percent	23.8%
CC(=O)c1nn(-c2ccc(Cl)cc2)/c(=N/N=C(\C)c2ccc(NC(=O)c3ccccc3)cc2)s1	MCF7			1.25 µM		toxicity	95.6% and 95.4%
CCOC(=O)c1nn(-c2cccc(Cl)c2)/c(=N/N=C(\C)c2ccc(NC(=O)c3ccc(Cl)cc3)cc2)s1	MCF7	MTT		2.5 µM		cytotoxicity	96.5%
COc1ccc(COC[C@@](O)(CNCc2ccc(F)cc2)[C@@H]2CC[C@@H](C)C[C@H]2OCc2ccc(OC)cc2)cc1	MCF7	cell growth, inhibitor, MTT		72 h		IC50	1640 nM
Nc1ccccc1SC1=CS(=O)(=O)c2ccccc21	Histone acetyltransferase RTT109 with Vps75	enzyme activity, inhibitor, HTS, CPM-based, dose response				IC50	> 125000 nM
N#CC(=Cc1ccc(F)cc1)C(=O)NCCc1cccc(Cl)c1	UCHL1	covalent, intact protein LC-MS		12.5 µM		labelling	13.5%
C=C1CN(S(=O)(=O)c2ccc(N(C)C)cc2)CCCN(CC2CCCCC2)CCCN(S(=O)(=O)c2cccc3ccccc23)C1.Cl	MCF7			1 µM, 48 h, together with: progranulin 1 µg/mL		mammosphere formation	inhibited
COC(=O)COc1c(Cc2cc(C(C)(C)CC(C)(C)C)cc(-n3nc4ccccc4n3)c2OCC(=O)OC)cc(C(C)(C)CC(C)(C)C)cc1-n1nc2ccccc2n1	MCF7	MTT		100 µM, 24 h		growth inhibition	84.2 ± 1.78%
O=[N+]([O-])c1cc(Br)c(O)c(C=NNc2ccc(C(F)(F)F)cc2)c1	MCF7	annexin V		IC50, 24 h		late apoptotic or dead cells	16.1%
CC/C(=C(\c1ccccc1)c1ccc(OCCN(C)C)cc1)c1ccccc1	MCF7	RNA-seq, item: CT62 mRNA		1 µM, 24 h, E2-induced gene	relative to: DMSO vehicle	log2 fold change	-1.21
CCC(=O)c1cccnc1Nc1cccc(C(F)(F)F)c1	MCF7	firefly luciferase reporter		100 µM, 6 h	relative to: vehicle	TEAD reporter activity	75.4 ± 6.7%
C[C@H](Nc1ccc2c(c1)OCCn1cc(N3C(=O)OC[C@H]3C(F)F)nc1-2)C(N)=O	MCF7	western blot, item: phospho-PKB/Akt Ser473		2 h		IC50	6.6 nM
O=c1ccn(Cc2cn(-c3cc4ccccc4oc3=O)nn2)c(=O)[nH]1	MCF7	NCI60 single-dose screen		10 µM		growth percentage	95.8%
CC(=NN=c1[nH]c(C)c(N=Nc2ccccc2)s1)c1c(O)c2ccccc2oc1=O	MCF7	cell growth, MTT			relative to: IC50 BJ-1 over MCF7	selectivity index	> 2.99
C=CC(=O)c1cccnc1Nc1cccc(C(F)(F)F)c1	MCF7	reporter gene, item: TEAD luciferase		100 µM		inhibition	95%
CC(=NN=c1scc(-c2ccccc2)n1C)c1c(O)c2ccccc2oc1=O	MCF7	cell growth, MTT			relative to: IC50 BJ-1 over MCF7	selectivity index	> 2.89
COc1cccc2c1C(=O)c1c(O)c3c(c(O)c1C2=O)C[C@@](O)(C(=O)CO)C[C@@H]3O[C@H]1C[C@H](N)[C@H](O)[C@H](C)O1	MCF7	cell viability, MTT		24 h		IC50	0.44 ± 0.03 µg/mL

For quick reference, copied from above:
SMILES	target or system	test	system	conditions	scale	measurement	result
Cc1cc(-c2ccccc2)n(-c2nc(-c3ccc(Cl)cc3)c3c(NC(=O)c4ccccc4)nnc-3[nH]2)n1	MCF7	SRB		10 µM, NCI60 single-dose screen	relative to: untreated	cell growth	58.3%
CCCN1CCN(c2ccc3[nH]c(-c4ccc5[nH]c(-c6cc(OC)c(OC)c(OC)c6)nc5c4)nc3c2)CC1	MCF7	SRB		10 µM, 48 h		growth percent	23.8%
CC(=O)c1nn(-c2ccc(Cl)cc2)/c(=N/N=C(\C)c2ccc(NC(=O)c3ccccc3)cc2)s1	MCF7			1.25 µM		toxicity	95.6% and 95.4%
CCOC(=O)c1nn(-c2cccc(Cl)c2)/c(=N/N=C(\C)c2ccc(NC(=O)c3ccc(Cl)cc3)cc2)s1	MCF7	MTT		2.5 µM		cytotoxicity	96.5%
